Experimental data collected from several papers.
Each line is one published result; not all experiments were run side by side. Values joined by “and” are separate records of one study, mostly repeats; a detail may differ. ± marks the error that the study gave.

CCn1cc(C(=O)N2CCOCC2)c(=O)c2cc(NC3Cc4ccccc4C3)cnc21 gave a Tmax of 2.25 h (human overall, fed, plasma; oral, 900 mg twice daily, day 1, tablet, median).
With [18F]c1ccc(-c2ccc3c(c2)[nH]c2ccncc23)cn1 the SUV was 0.602 ± 0.118 (microPET/CT imaging; B6SJL mouse, normal, brain; intravenous, 20 min).
O=C1NCCc2nc(OCc3cccc(F)c3)ccc21 — result for “Irwin test score”: 0 (measured: loss of Grasping; Sprague-Dawley rat male; oral, 100 mg/kg, 30 min; direction not given).
For O=C(O)[C@@H]1CCCCN1, “log2 fold change” read -0.131 (binding, MIDAS equilibrium dialysis LC-MS; A2AR-BRIL thermostabilized; concentration not given; relative to: no-protein control).
Under “renal clearance at steady state”, C[C@@H](Oc1ccc(S(C)(=O)=O)cc1C(=O)N1C[C@@H]2C[C@]2(c2cc(C(F)(F)F)on2)C1)C(F)(F)F is recorded as 7.83 mL/min (elderly humans, urine; oral, 50 mg once daily, 0-24 h, multiple dose, geometric mean).
CCN1CCN(Cc2ccc(NC(=O)c3ccc(C)c(NC(=O)c4cncc(-c5cccs5)c4)c3)cc2C(F)(F)F)CC1 — result for “mean plasma concentration”: 531 ng/mL (LC-MS/MS; C57BL/6 mouse, plasma; intraperitoneal, 15 mg/kg single dose, 0.25 h).
Under “amount excreted in urine (0-8 h)”, NCCONC(=O)[C@@H]1CC[C@@H]2CN1C(=O)N2OS(=O)(=O)O is recorded as 1430 mg (human male, urine; intravenous infusion, 2 g single dose).
For Cc1nc2cccc(OCC(C)(C)C(=O)NC(C)C)c2c(N)c1C(=O)O, the PCE/NCE ratio was 0.9 (male Swiss albino CD-1 mouse, bone marrow; oral, 2000 mg/kg, 36 h).
N#Cc1ccc2c(c1)[C@H]1CCCN(C(=O)c3ccc4[nH]cnc4c3)[C@H]1C2: “minimum ACTH level” 1.2 pmol/L (human; 240 mg, day 15).
For NC1(C(=O)N[C@@H](CCO)c2ccc(Cl)cc2)CCN(c2nc[nH]c3nccc2-3)CC1, “incidence of Dysgeusia” read 20% (metastatic CRPC patients; 480 mg b.i.d., any grade, treatment-related, with: enzalutamide 160 mg daily).
For Cl.[2H]C([2H])([2H])CC(=O)c1cnc(NC(=O)C2CC2)cc1Nc1cccc(-c2ncn(C([2H])([2H])[2H])n2)c1OC, the CL/F was 14.9 L/h (geometric mean; human; 5 mg single dose, fasted, liquid).
COc1cc(Nc2ncc3c(n2)-c2ccc(Cl)cc2C(c2c(F)cccc2OC)=NC3)ccc1C(=O)O: “patients with adverse event” 17% (measured: Alopecia, grade 1; cancer patients, phase 1/2; oral, dose not given, with: pembrolizumab).
For Cc1cc(NC2CCN(C(=O)OC3CCN(C(=O)/C=C/CN(C)C)C3)CC2)n2ncc(C(C)C)c2n1 (stereo not shown), “patients with adverse event” read 0% (Phase I dose escalation CTCAE v4.0, measured: blood creatinine increased; patients with advanced solid tumours; dose not given, Total dosing grade 3 or higher).
CCN1/C(=C/C(C)=O)Sc2ccc(F)cc21 gave a QT interval of 231 ± 11 ms (cynomolgus monkey; oral, 30 mg/kg, 0.5 h post-dose).
COc1cccc(OC)c1-c1cc(C(=O)NC2(C(=O)O)C3CC4CC(C3)CC2C4)nn1-c1ccc(C(=O)N(C)CCCN(C)CCCN(C)C(=O)CN2CCN(CC(=O)[O-])CCN(CC(=O)[O-])CCN(CC(=O)[O-])CC2)cc1C(C)C.[177Lu+3] (stereo not shown) gave a tumour-to-blood ratio of 4.02 (mouse, HT-29 xenograft; 168 h post injection, biodistribution; relative to: tumour over blood uptake).
Under “adverse event incidence”, CC(=O)O[C@H]1C(=O)[C@@]2(C)[C@H]([C@H](OC(=O)c3ccccc3)[C@]3(O)C[C@H](OC(=O)[C@H](O)[C@@H](NC(=O)c4ccccc4)c4ccccc4)C(C)=C1C3(C)C)[C@]1(OC(C)=O)CO[C@@H]1C[C@@H]2O is recorded as 0% (measured: Pruritus; patients with advanced solid tumours; intravenous, dose not given, grade 3 and 4, possibly related to drug).
CNC(=O)c1ccc(-c2cnc3ncc(Cc4ccc5ncccc5c4)n3n2)cc1F — result for “Pneumonitis treatment discontinuation”: 2% (Japanese patients; oral, 400 mg, any grade).
For CCOC(=O)c1c(NC(=O)CNC(C)C)sc2c1CCCCC2, “brain AUC(0-1 h)” read 9690 ng·h/g (mouse, brain; intraperitoneal, 100 mg/kg).
For NC(=O)c1cc(Oc2ccc(NC(=O)Nc3ccc(Cl)c(C(F)(F)F)c3)c(F)c2)cc[n+]1[O-], the accuracy was 109% (long-term stability; mouse plasma; 25 ng/mL, 6 months, -80 °C).
Under “abdominal pain incidence”, CNC(=O)c1ccc(-c2cnc3ncc(Cc4ccc5ncccc5c4)n3n2)cc1F is recorded as 33% (gastric cancer patients; oral, 600 mg twice daily, all grades RP2D expansion).
C/C(=N\c1ccc(O)cc1)c1cc2ccccc2n1C has a remaining compound of 98.8 ± 1.9% (processed rat plasma sample; 1000 ng/mL, 24 h, room temperature, autosampler tray; relative to: nominal).
Cn1cc(Nc2nccc(-c3ccc4c(c3)CN(C3COC3)CC[C@H]4NC(=O)c3cn(C(C)(C)C)nn3)n2)cn1 — result for “granulocyte count change”: 3.78% (human, whole blood; 150 mg twice daily, day 7; relative to: pre-dose baseline).
For CC(F)(F)c1nc2nc(CO)cc(Nc3ccc(S(F)(F)(F)(F)F)cc3)n2n1, the AUC(0-inf), metabolite was 214 µg·h/mL (LC-MS/MS; malaria patients, plasma; oral, 800 mg of parent drug).
N#Cc1ccc(C(c2ccc(C#N)cc2)n2cncn2)cc1: “AUC at steady state per dose” 4.32 ± 1.13 µg·h/mL/mg (human patients, plasma; oral, 10 mg daily).
C[C@@](Cc1ccc(O)c(O)c1)(NN)C(=O)O has an AUC(0-t) of 0.36 µM·h (Parkinson's disease patients, plasma; oral, dose not given, 3 h, low levodopa Cmax subgroup (<9 µmol/L), median).
With CC(C)[C@H](C(=O)Nc1ccc(C(=O)NO)cc1)c1ccccc1 the accuracy was 112% (whole blood; 100 ng/mL, 5 h, 4 °C, stability on ice).
For CC(C)[C@@H](CS(=O)(=O)C(C)C)N1C(=O)[C@@](C)(CC(=O)O)C[C@H](c2cccc(Cl)c2)[C@H]1c1ccc(Cl)cc1, “spinal cord distribution advantage” read 59.5 (FVB mouse, Abcb1a/b knockout, spinal cord; intravenous, 20 mg/kg, unit not given; relative to: knockout Kp over wild-type Kp).
C=CC(=O)NC1CCN(c2ncc3ncnc(Nc4ccc(Oc5ccc6c(c5)ncn6C)c(C)c4)c3n2)CC1: “adverse events incidence” 6% (measured: general and administration site (SOC); human male; oral, dose not given, AEs, treatment-related, on drug, CTCAE).
Cc1cc(C)c(CNC(=O)c2cc(Cl)c3c(c2C)O[C@@](C)([C@H]2CC[C@H](N(C)C)CC2)O3)c(=O)[nH]1 — result for “patients with TEAE”: 0% (measured: Dyspnea; human patients; oral, 200 mg once daily, 1 day onset day 14).
C=CC(=O)Nc1cc(Nc2nccc(-c3cn(C4CC4)c4ccccc34)n2)c(OC)cc1N(C)CCN(C)C gave a TG level of 1.02 ± 0.116 mmol/L (BALB/c nude mouse, LU0387 xenograft, serum; oral, 40 mg/kg).
Under “literature range factor”, c1ccc2c(c1)c1cccc3ccc4cccc2c4c31 is recorded as 7 (PDMS-water partitioning; PAH compilation; relative to: maximum over minimum K).
O=C(O)CCC(=O)O.[2H]C([2H])([2H])Oc1cc(C)c2[nH]ccc2c1CN1CC[C@@H](C2CC2)C[C@H]1c1ccc(C(=O)O)cc1: “subjects with muscle pain TEAE” 0% (multiple ascending dose; healthy Chinese subjects; 50 mg twice daily).
CC(C(=O)NCC(=O)NCC(CNC(=O)CNC(=O)C(C)N1CCN(CC(=O)[O-])CCN(CC(=O)[O-])CCN(CC(=O)[O-])CC1)(CNC(=O)CNC(=O)C(C)N1CCN(CC(=O)[O-])CCN(CC(=O)[O-])CCN(CC(=O)[O-])CC1)CNC(=O)CNC(=O)C(C)N1CCN(CC(=O)[O-])CCN(CC(=O)[O-])CCN(CC(=O)[O-])CC1)N1CCN(CC(=O)[O-])CCN(CC(=O)[O-])CCN(CC(=O)[O-])CC1.[Gd+3].[Gd+3].[Gd+3].[Gd+3] (stereo not shown) — result for Gd release: “not detected” (LC-ICP-MS; human plasma; 1 mmol Gd/L, per day, pH 7.4, 37°C).
FC(F)(F)c1ccc(CNc2ccc(Cc3c[nH]c4ncc(Cl)cc34)cn2)cn1: “cognitive disorder incidence” 0% (patients with advanced solid tumours; oral, 1000 mg/day, TGCT cohort, grade ≥3).
With CNCCOC12CC3(C)CC(C)(CC(Cn4ncc(-c5ccc(N6CCc7cccc(C(=O)Nc8nc9ccccc9s8)c7C6)nc5C(=O)O)c4C)(C3)C1)C2 the plasma concentration was 93 ± 21 ng/mL (anaesthetised male beagle dogs; intravenous bolus, 0.03 mg/kg, 5 min).
With O=C(O)C1=CO[C@@H](O[C@@H]2O[C@H](CO)[C@@H](O)[C@H](O)[C@H]2O)[C@@H]2C(CO)=CC[C@H]12 the accuracy was 104% (post-procedure stability; rat plasma; 8 ng/mL, 3 h, room temperature).
CCOc1c([C@H](C)n2nc(C)c3c(N)ncnc32)cc(Cl)c(F)c1[C@@H]1CNC(=O)C1 gave an ECG observations of 100% (measured: QTcF change ≤30 ms; previously treated B-cell malignancy; oral, 15 mg once daily, overall population; relative to: baseline).
The AUC(0-inf) of COc1ccc2[nH]c([S+]([O-])Cc3ncc(C)c(OC)c3C)nc2c1 (stereo not shown) is reported as 3.63 ± 1.2 µg·h/mL (healthy Chinese volunteers, plasma; oral, 20 mg, fed, CYP2C19 poor metabolizers).
The accuracy of OCC1=C[C@@H](O)[C@@H]2C=CO[C@@H](O[C@@H]3O[C@H](CO)[C@@H](O)[C@H](O)[C@H]3O)[C@H]12 is reported as 94.5% (three freeze-thaw cycles; rat plasma; 1000 ng/mL, -70 °C freeze).
Under “participants with grade ≥ 3 TEAE”, CCn1c(=O)c(-c2cc(NC(=O)Nc3ccccc3)c(F)cc2Br)cc2cnc(NC)cc21 is recorded as 25% (measured: investigations; human, severe hepatic impairment; oral, 50 mg single dose).
C[Si](C)(C)O[Si](C)(C)O[Si](C)(C)O[Si](C)(C)O[Si](C)(C)C: “whole-body biotransformation rate constant” 0.0067 day⁻¹ and 0.01 day⁻¹ and 0.0097 day⁻¹ (IVIVE from S9; rainbow trout (Oncorhynchus mykiss)).
Cc1c(-c2ccc(N3CCc4cccc(C(=O)Nc5nc6ccccc6s5)c4C3)nc2C(=O)O)cnn1CC12CC3(C)CC(C)(C1)CC(OCCNCC[C@H](O)CO)(C3)C2 — result for “dP/dt at 50 change”: -25% (beagle dog, male, anaesthetised; intravenous infusion, 0.3 mg/kg/min, 75 min; relative to: vehicle).
For Nc1nc2c(ncn2[C@H]2C[C@H](O)[C@@H](COP(=O)(O)O)O2)c(=O)[nH]1, “log2 fold change” read -0.174 (binding, MIDAS equilibrium dialysis LC-MS; A2AR-BRIL thermostabilized; concentration not given; relative to: no-protein control).
For NC/C(=C\F)COc1cccc(Cn2c(=S)[nH]c(=O)c3[nH]cnc32)c1, the remaining compound was 90% (rat liver microsomes; 1 µM, 1 h).
Cc1coc([C@H]2C[C@H]3[C@@H](CF)SC(N)=N[C@@]3(c3ccc(F)cc3F)CO2)n1 has a brain concentration of 618 nM (male 129/SVE mouse, brain; subcutaneous, 80 mg/kg, 5 h).
The UA level of Oc1ccc(/C=C/c2cc(O)cc(O)c2)cc1 is reported as 1.1 mg/dL and 0.9 mg/dL and 1.2 mg/dL (rat, azoxymethane-injected, blood; in vivo, 100 mg/kg, at sacrifice).
